Assay results from different studies.
Protocols differ between the studies behind these lines. Numbers after ± are the reported error.
UniProt P02769, sequence (whole entry, looked up): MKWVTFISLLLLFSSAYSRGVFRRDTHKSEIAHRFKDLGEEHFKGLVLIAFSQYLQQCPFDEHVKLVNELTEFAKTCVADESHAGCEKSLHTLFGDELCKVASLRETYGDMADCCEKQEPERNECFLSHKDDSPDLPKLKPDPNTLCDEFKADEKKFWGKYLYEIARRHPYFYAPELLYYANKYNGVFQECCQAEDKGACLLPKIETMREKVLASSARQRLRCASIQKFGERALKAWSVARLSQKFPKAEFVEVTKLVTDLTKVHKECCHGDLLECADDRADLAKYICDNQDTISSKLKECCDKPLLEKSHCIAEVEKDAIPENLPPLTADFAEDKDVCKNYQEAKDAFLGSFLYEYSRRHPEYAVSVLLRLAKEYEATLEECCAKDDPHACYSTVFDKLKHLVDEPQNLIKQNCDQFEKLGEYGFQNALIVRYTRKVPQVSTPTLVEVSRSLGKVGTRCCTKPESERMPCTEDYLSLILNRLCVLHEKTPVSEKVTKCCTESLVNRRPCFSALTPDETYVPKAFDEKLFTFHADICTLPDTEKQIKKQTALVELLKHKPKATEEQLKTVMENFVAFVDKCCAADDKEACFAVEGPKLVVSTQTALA

`Cc1cc(C#N)cc(C)c1Oc1nc(NC2CCN(Cc3ccccn3)CC2)nc2ccccc12` gave a selectivity index of greater than 15.9 (HIV-1; TZM-bl, NL4-3 wild type; reference: CC50 over EC50).
With `N=C(N)c1ccc(-c2ccc(-c3cccs3)o2)nc1` the viability was 112 ± 5% (Salmonella typhimurium; liquid broth OD; TA1535; 12.5 µM, 15 h; reference: growth).
`Cn1c(=O)oc2ccc(-c3ccc(CC(C#N)NC(=O)C4CNCCCO4)c(F)c3)cc21` (stereo not drawn) has a Tmax of 1.5 h (human, plasma; 40 mg once daily, day 28, median).
The tissue uptake of `[64Cu+2].c1cnc(CNCc2ccc(CN3CCCN4CCNCCCN(CC4)CC3)cc2)nc1` is reported as 34.9 ± 1.22 %ID/g (CXCR4; NOD/SCID mouse, U87 and U87-stb-CXCR4 xenografts, liver; iv, 90 min, ex vivo, added: AMD3465 25 mg/kg sc before tracer).
For `N#Cc1ccc(-c2ccc(-c3cccs3)s2)cc1`, the viability was 119 ± 6.7% (Salmonella typhimurium; liquid broth OD; TA1535; 50 µM, 15 h; reference: growth).
The selectivity index of `C=CCC1=C[C@@]2(C[C@H](O)C(C)(C)O2)C2=C(C[C@H]3C[C@@H]4[C@@H](C[C@@]3(C)O2)C(=C)CCCC4(C)C)C1=O` is reported as 4.3 (coxsackievirus B3; cytopathic effect; Vero, Nancy; reference: CC50 over IC50).
The basolateral efflux of `[99Tc+].[C-]#[N+]CC(C)(C)OC.[C-]#[N+]CC(C)(C)OC.[C-]#[N+]CC(C)(C)OC.[C-]#[N+]CC(C)(C)OC.[C-]#[N+]CC(C)(C)OC.[C-]#[N+]CC(C)(C)OC` is reported as 64 ± 4.2% (human sandwich-cultured hepatocytes; 20 min, culture day 7; reference: preloaded amount).
The viability of `N#Cc1ccc(-c2ccc(-c3ccco3)o2)cc1` is reported as 106 ± 6.6% (Salmonella typhimurium; liquid broth OD; TA1535; 25 µM, 15 h; reference: growth).
`Cc1cc(C#N)cc(C)c1Oc1nc(NC2CCN(Cc3ccc(S(N)(=O)=O)cc3)CC2)nc2cccnc12` has a selectivity index of 10000 (HIV-1; TZM-bl, NL4-3 wild type; reference: CC50 over EC50).
`CC(C)CCC[C@@H](C)[C@H]1CCC([C@@H]2CC[C@H]3C[C@@H](O)CC[C@]3(C)[C@@H]2O)[C@]1(C)CC(=O)O` (stereo partly drawn) gave a viability of greater than 100% (HEK293T; CellTiter-Blue; 10 µM).
With `N#Cc1cc(C(=O)OCC[18F])c(C(F)(F)F)nc1N1CCC(C(=O)NS(=O)(=O)c2ccc(Cl)s2)CC1` the permeability was 7.5% (bEnd.3 monolayer transwell; concentration not given).
`COc1cc2nc(NC3CCN(Cc4ccc(S(N)(=O)=O)cc4)CC3)nc(Oc3c(C)cc(C#N)cc3C)c2cc1OC` gave a selectivity index of 914 (HIV-1; TZM-bl, NL4-3 wild type; reference: CC50 over EC50).
With `CCCC[C@H](NC(C)=O)C(=O)N[C@H]1CC(=O)NCCCC[C@@H](C(=O)N[C@@H](C(=O)N2CCC[C@@H]2C(N)=O)C(C)C)NC(=O)[C@H](Cc2c[nH]c3ccccc23)NC(=O)[C@H](CCCN=C(N)N)NC(=O)[C@@H](Cc2ccc3ccccc3c2)NC(=O)[C@@H]2CCCN2C1=O` the plasma histamine was 17.1 ng/mL (healthy dogs, plasma; subcutaneous, 2.25 mg/kg per day, day 28, 12 h post-dose, median).
The selectivity index of `Cc1cc(C#N)cc(C)c1Oc1nc(NC2CCN(Cc3ccc(S(=O)(=O)NC4CC4)cc3)CC2)nc2ccccc12` is reported as greater than 16.2 (HIV-1; TZM-bl, NL4-3 wild type; reference: CC50 over EC50).
`N#Cc1ccc(-c2ccc(-c3cccs3)o2)cc1` gave a viability of 100 ± 8.6% (Salmonella typhimurium; liquid broth OD; TA1535; 25 µM, 15 h; reference: growth).
`Cc1cc(C#N)cc(C)c1Oc1nc(NC2CCN(Cc3ccc(Cl)cc3)CC2)nc2ccccc12` has a selectivity index of greater than 8.66 (HIV-1; TZM-bl, NL4-3 wild type; reference: CC50 over EC50).
`C[C@H](NP(=O)(O)OC[C@H]1O[C@@](C#N)(c2ccc3c(N)ncnn23)[C@H](O)[C@@H]1O)C(=O)O` has a CC50 of greater than 100 µM (primary human hepatocytes; refers to: total DNA content; 3 days).
For `C=CCC1=CC2(CC(O)C(C)(C)O2)C2=C(CC3CC4C(=C)CCCC(C)(C)C4CC3(C)O2)C1=O` (stereo not drawn), the selectivity index was 5.2 (coxsackievirus B3; cytopathic effect; Vero, Nancy; reference: CC50 over IC50).
`N#C[C@@H]1CCCN1C(=O)CNC(=O)c1ccnc2ccc(OCCCN3CCN(C(=O)CCc4ccc(O)c(CN5CCN6CC(=O)[O][Al-]([18F])([O]C(=O)C5)[O]c5ccc(CCC(=O)N7CCN(CCCOc8ccc9nccc(C(=O)NCC(=O)N%10CCC[C@H]%10C#N)c9c8)CC7)cc5C6)c4)CC3)cc12` (stereo partly drawn) has a tracer uptake of 40.3 %ID/g (U-87 MG tumour model; host not given, tumour; 2 h, tumour-bearing).
For `Cc1cc(C#N)cc(C)c1Oc1nc(NC2CCN(Cc3ccccc3Br)CC2)nc2ccccc12`, the selectivity index was greater than 6.81 (HIV-1; TZM-bl, NL4-3 wild type; reference: CC50 over EC50).
`[64Cu+2].c1ccc(CNCc2ccc(CN3CCCN4CCNCCCN(CC4)CC3)cc2)nc1` gave a tissue uptake of 4.63 ± 1.16 %ID/g (CXCR4 (human); NOD/SCID mice, U87 xenografts, small intestine; 90 min post-injection).
`N=C(N)c1ccc(-c2ccc(-c3ccco3)o2)nc1` has a viability of 94.8 ± 4.8% (Salmonella typhimurium; liquid broth OD; TA1535; 100 µM, 15 h; reference: growth).
With `O=C(O)CCC(NP(=O)(O)OCCC[C@@H](NC(=O)CC[C@H](NC(=O)CCCCCNC(=O)c1ccc([18F])cc1)C(=O)O)C(=O)O)C(=O)O` (stereo partly drawn) the tracer uptake was 0.451 %ID/g (CWR22Rv1 tumour model; host not given, liver; 1 h, tumour-bearing).
`N=C(N)c1ccc(-c2ccc(-c3cccs3)o2)cc1` gave a viability of 103 ± 5.2% (Salmonella typhimurium; liquid broth OD; TA1535; 50 µM, 15 h; reference: growth).
With `CC(=O)N[C@H](C(=O)N[C@H](C(=O)N[C@@H](CCCNC(=N)N)C(=O)N1Cc2ccccc2C[C@H]1C(=O)N[C@@H](Cc1ccccc1)C(N)=O)C1CCCCC1)C(C)C` the cytokine level was 125 ± 58.3 pg/mL (human PBMC; Bio-Plex multiplex, refers to: VEGF; 500 µg/mL, 24 h).
`Cc1cc(C#N)cc(C)c1Oc1nc(NC2CCN(Cc3ccc(S(C)(=O)=O)cc3)CC2)nc2ncccc12` has a selectivity index of 23400 (HIV-1; TZM-bl, NL4-3 wild type; reference: CC50 over EC50).
The viability of `N#Cc1ccc(-c2ccc(-c3ccco3)o2)nc1` is reported as 111 ± 10.1% (Salmonella typhimurium; liquid broth OD; TA1535; 50 µM, 15 h; reference: growth).
For `O=C(O[C@@H]1Cc2c(O)cc(O)cc2O[C@@H]1c1cc(O)c(O)c(O)c1)c1cc(O)c(O)c(O)c1`, the remaining fluorescence was 20.7% (Albumin (ALB, Bos taurus, UniProt P02769); binding, fluorescence quenching; 25 µM, 1 h, pH 7.4, added: BSA 3 µM; reference: untreated).
`N#Cc1ccc(-c2ccc(-c3cccs3)o2)nc1` has a viability of 135 ± 12.4% (Salmonella typhimurium; liquid broth OD; TA1535; 12.5 µM, 15 h; reference: growth).
`Cc1cc(/C=C/C#N)cc(C)c1Oc1nc(NC2CCN(Cc3ccc(C(N)=O)cc3)CC2)nc2ccccc12` has a selectivity index of 8660 (HIV-1; TZM-bl, NL4-3 wild type; reference: CC50 over EC50).
